Measured values pooled from the literature.
Compare with care: the assays were run in different laboratories.
UniProt P51617, sequence (whole entry, looked up): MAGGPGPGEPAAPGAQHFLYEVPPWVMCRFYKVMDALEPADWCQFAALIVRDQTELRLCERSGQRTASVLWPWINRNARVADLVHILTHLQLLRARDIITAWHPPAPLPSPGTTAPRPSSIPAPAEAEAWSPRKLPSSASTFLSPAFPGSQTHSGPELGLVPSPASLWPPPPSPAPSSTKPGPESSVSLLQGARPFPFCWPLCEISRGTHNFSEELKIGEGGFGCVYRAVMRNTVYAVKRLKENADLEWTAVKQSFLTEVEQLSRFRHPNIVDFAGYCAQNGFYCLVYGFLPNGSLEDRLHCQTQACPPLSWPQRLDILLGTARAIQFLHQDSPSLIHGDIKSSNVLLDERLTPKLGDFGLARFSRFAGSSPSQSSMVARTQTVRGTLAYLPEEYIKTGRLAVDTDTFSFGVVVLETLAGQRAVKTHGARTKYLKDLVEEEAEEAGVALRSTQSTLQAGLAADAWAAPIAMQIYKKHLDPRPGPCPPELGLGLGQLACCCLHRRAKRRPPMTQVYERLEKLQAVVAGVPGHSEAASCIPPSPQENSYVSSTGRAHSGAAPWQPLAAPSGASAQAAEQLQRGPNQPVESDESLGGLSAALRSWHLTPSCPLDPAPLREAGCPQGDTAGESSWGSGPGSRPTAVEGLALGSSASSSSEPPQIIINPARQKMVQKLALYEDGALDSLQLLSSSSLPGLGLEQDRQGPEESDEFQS
UniProt P07384, sequence (whole entry, looked up): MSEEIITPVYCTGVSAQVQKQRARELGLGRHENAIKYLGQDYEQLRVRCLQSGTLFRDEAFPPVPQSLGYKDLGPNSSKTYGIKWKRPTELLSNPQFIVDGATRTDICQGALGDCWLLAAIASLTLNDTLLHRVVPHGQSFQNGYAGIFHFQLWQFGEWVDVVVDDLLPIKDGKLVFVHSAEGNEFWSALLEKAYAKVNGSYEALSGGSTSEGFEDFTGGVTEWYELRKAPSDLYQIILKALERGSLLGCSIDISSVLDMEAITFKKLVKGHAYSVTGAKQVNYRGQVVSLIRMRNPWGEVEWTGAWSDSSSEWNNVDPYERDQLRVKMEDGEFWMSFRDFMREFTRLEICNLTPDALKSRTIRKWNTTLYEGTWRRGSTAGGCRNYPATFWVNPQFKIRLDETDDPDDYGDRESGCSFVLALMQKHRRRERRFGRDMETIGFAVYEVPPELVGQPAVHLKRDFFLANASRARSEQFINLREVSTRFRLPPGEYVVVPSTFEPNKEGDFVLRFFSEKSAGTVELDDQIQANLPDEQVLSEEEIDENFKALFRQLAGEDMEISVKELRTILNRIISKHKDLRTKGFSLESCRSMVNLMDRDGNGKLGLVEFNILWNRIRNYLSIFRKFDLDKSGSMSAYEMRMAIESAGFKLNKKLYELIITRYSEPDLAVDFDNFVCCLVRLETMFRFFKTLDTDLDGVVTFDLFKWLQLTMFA

Structure (SMILES) | tested on | test | system | setting | scale | quantity | value
O=C(Cc1ccc2ccccc2c1)N[C@H]1CCOC1=O | ExpR1 (Pectobacterium carotovorum) | cellulase activity, antagonist | Pectobacterium carotovorum, single-ExpR1 strain | 5 µM, 4 h, together with: OHHL 5 µM |  | inhibition | 58%
COc1cc2c(Oc3ccc4[nH]c(C)cc4c3F)ccnc2cc1OCC1(N)CC1 |  |  | paediatric refractory sarcoma patients | 10 mg |  | Haematochezia incidence | 0%
CCCCCCCCCC(=O)N[C@H]1CCOC1=O | ExpR1 (Pectobacterium carotovorum) | cellulase activity, antagonist | Pectobacterium carotovorum, single-ExpR1 strain | 5 µM, 4 h, together with: OHHL 5 µM |  | inhibition | 91%
c1ccc(C(NCCNC(c2ccccc2)c2ccccc2)c2ccccc2)cc1 | phorbol ester site, mouse | binding |  | 10 µM, Eurofins selectivity panel |  | inhibition | -13%
CO[C@H]1C[C@@H]2CC[C@@H](C)[C@@](O)(O2)C(=O)C(=O)N2CCCC[C@H]2C(=O)O[C@H]([C@H](C)C[C@@H]2CC[C@@H](OC(=O)NCCOCCOCCOCCOCCOCCOCCOCCOCCC(=O)N3CCc4cc(Cn5nc(-c6ccc7oc(N)nc7c6)c6c(N)ncnc65)ccc4C3)[C@H](OC)C2)C[C@@H](O)[C@H](C)/C=C(\C)[C@@H](O)[C@@H](OC)C(=O)[C@H](C)C[C@H](C)/C=C/C=C/C=C/1C |  |  | patients with advanced solid tumours | intravenous, 16 mg weekly, grade 3 or higher |  | AE leading to discontinuation | 25%
CC1(C)CN(C(=O)c2ccc(-c3cccc4nc(NC(=O)C5CC5)nn34)cc2)C1 | NLRP3 inflammasome |  |  | 10 µM |  | inhibition | 43%
CSc1cccc(CC(=O)N[C@H]2CCOC2=O)c1 | ExpR1 (Pectobacterium carotovorum) | cellulase activity, antagonist | Pectobacterium carotovorum, single-ExpR1 strain | 5 µM, 4 h, together with: OHHL 5 µM |  | inhibition | 79%
O=C(Nc1cccnn1)N1CCN([C@@H]2CCOc3cc(C(F)(F)F)ccc32)CC1 | L-type calcium channel, dihydropyridine site | binding |  | 20 µM |  | inhibition | -10%
CC(C)CC(=O)OC[C@H]1O[C@@](C#N)(c2ccc3c(N)ncnn23)[C@H](O)[C@@H]1O | adenosine transporter guinea pig | radioligand binding |  | 20 µM |  | inhibition | 49%
Cc1cc(Nc2cc(N3CCN(C)CC3)nc(Sc3ccc(NC(=O)C4CC4)cc3)n2)n[nH]1 | NLRP3 inflammasome |  |  | 10 µM |  | inhibition | 26.9%
COc1cc(Nc2ncc(F)c(Nc3ccc4c(n3)NC(=O)C(C)(C)O4)n2)cc(OC)c1OC | Calpain-1 catalytic subunit (CAPN1, Homo sapiens, UniProt P07384) |  |  |  |  | IC50 | > 10 µM
CC[C@H](C)[C@@H]1NC(=O)[C@@H]2CCCN2C(=O)[C@H](CC(C)C)NC(=O)[C@H](CC(C)C)NC(=O)CNC(=O)[C@@H](NC(=O)[C@@H](NC(=O)[C@H](CC(=O)O)NC(=O)CNC(=O)[C@@H](NC(=O)[C@H](C)NC(=O)CNC(=O)[C@H](CCCCN)NC(=O)[C@H](CC(C)C)NC(=O)[C@H](CC(C)C)NC(=O)[C@H](CCCCN)NC(=O)CNC(=O)[C@@H](NC(=O)[C@@H](N)CC(C)C)C(C)C)C(C)C)C(C)C)CSSC[C@@H](C(=O)O)NC1=O |  | RNA-seq, item: Ms4a8a mRNA | mouse traumatic brain injury, frontal cortex and hippocampus | dose not given | reference: TBI plus compound vs TBI | log2 fold change | -2.77
C[C@H]1CN(c2n[nH]c3nc(N[C@H]4CC[C@H](NS(=O)(=O)CCC(F)(F)F)CC4)ncc23)CCO1 | Interleukin-1 receptor-associated kinase 1 (IRAK1, Homo sapiens, UniProt P51617) | inhibitor, Kinobeads competition profiling |  | 0.032 µM | reference: vehicle | relative abundance | 1.03
O=C(Nc1nc2cccc(-c3ccc(CN4CCS(=O)(=O)CC4)cc3)n2n1)C1CC1 | NLRP3 inflammasome |  |  | 10 µM |  | inhibition | 90.6%
C[C@H](C(=O)N[C@H]1COc2ccccc2[C@@H]1S(C)(=O)=O)c1ccc(F)cc1 | GABA transporter (rat) | Eurofins selectivity panel |  | 10 µM |  | inhibition | -4%

Some of these lines once more:
Structure (SMILES) | tested on | test | system | setting | scale | quantity | value
CCCCCCCCCC(=O)N[C@H]1CCOC1=O | ExpR1 (Pectobacterium carotovorum) | cellulase activity, antagonist | Pectobacterium carotovorum, single-ExpR1 strain | 5 µM, 4 h, together with: OHHL 5 µM |  | inhibition | 91%
